Assay results collected from several papers.
Numbered parts are unrelated; each lists some results of a single study. Positions count from the first letter of the parent shown.

Series 1
Target: Histone acetyltransferase KAT6A, winged helix 1, GST fusion (KAT6A, Homo sapiens, UniProt Q92794, residues 1-85)
Method: protein binding microarray
Form: double-stranded DNA, one strand shown
Matrix: in vitro
Tested at: not given
Notes: 8-mer, flanks averaged, mean of 2 arrays, mostly near background
Baseline: not given
Reading: higher = stronger binding
Target sequence (chain): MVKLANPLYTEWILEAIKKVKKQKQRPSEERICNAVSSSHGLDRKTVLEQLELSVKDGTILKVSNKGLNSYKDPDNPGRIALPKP
| Oligonucleotide | E-score |
| --- | --- |
| GAGGCTAC | -0.0878 |
| ACACAAAC | -0.126 |
| CGTGTTTA | 0.151 |
| CTCTAACA | -0.0564 |
| CTTAACTC | -0.241 |
| GTCCTGCA | -0.294 |
| TAAAAGAA | -0.0343 |
| ACCGCTAG | 0.179 |
| ATCTTGTA | -0.208 |
| CAACACAA | -0.308 |
| CTTCGGAC | 0.0287 |
| ATGATACC | -0.142 |
| ACATGAGG | -0.0941 |
| AAAGGCAC | 0.0586 |
| CCTACAGC | 0.105 |
| AATTGGGA | -0.181 |
| ATCGCTGC | 0.189 |
| CTACCCAG | -0.165 |
| GGCAATTA | 0.0771 |
| CGGTGAGA | 0.00536 |
| CGCTTAAA | 0.0802 |
| ATGCACTC | 0.155 |

Series 2
Target: RNA binding protein fox-1 homolog 2, RRM domain, GST-SBP tag (RBFOX2, Homo sapiens, UniProt O43251-10, residues 100-194)
Method: RNA Bind-n-Seq
Form: RNA
Matrix: in vitro
Tested at: 365 nM
Notes: natural RNA segment, single round, ends assumed
Baseline: no-protein control
Reading: higher = stronger binding
Shared flanks, not repeated: GGGAGUUCUACAGUCCGACGAUC … UGGAAUUCUCGGGUGCCAA
Target sequence (chain): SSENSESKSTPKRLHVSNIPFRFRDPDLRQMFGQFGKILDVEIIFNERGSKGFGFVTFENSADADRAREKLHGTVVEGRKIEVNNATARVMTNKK
| Oligonucleotide | RBNS enrichment (R) |
| --- | --- |
| UAACUGAAAUCAAUCAAGAUAACUUUAUUCAAAGAGCAGCCCGCUUUGUGUGACUAAAAUGAAACAAGACAGUUGAAUUGUGUGACUUGAAGAUUACCAAUGAUUUUGAG | 0.399 |
| AGAGCUACAACAUGCCAUCUAUAGUUGCCAGCCCUGGUCAGUUUUGAUUCUUAACCCCAUGGACUCCUUUCCCUUUCUUCUCUGAAAAAAACUAAUUUAAAUUUGCUUUU | 1.27 |
| AUCCUUAAUGUAGUUCUCAUCCUCCGCAUGCCCUCAGCCACAAGCGGGUGACUGACUGUUCCCUGAUGAUUUGGCCCACCUCCUGUGUUUGGACCUCUAGGGAGGAGGGU | 12.5 |
| UCUGAGGUGUUCAGAAUCUGACCCUCUUGGCAGAGAUCUGUCUGGGAAAUUUAACCAGGCAGUGGAUCAGCCAAGCCCCUCCCCAUUCUCACCAACCCCAGCUGGGACCA | 0.303 |
| AUGUUUGUAUAAUAGAACAUUAAUCAUUUAUUAUAACUCAGACAAGGUGUAAAUAAAUUCAUAAUUCAAACAGCCAGUAUAUAUGCAUAUAUGGGUGUUACAUUGCAAAA | 0.785 |
| UCCGCUGCCUCCAAGCCGGACUUAGGGCUUCAAGAGGCGGGCGUGCCCUCUGGAGUCCCCUACCAUGACUGAAGGCGCCAGAGACUGGCGGUGUCUUAAGACUCCGGGCA | 7.14 |
| AGCUAGCUGUCUAGGCAGGCCUUGCCUCGAGCAACGCCCCUGCCCAGCCUCUGUGACAGUGACUCCCUCUCCCCUUGUACAUACUCUCACACAGGUUCCCCUUGUACAUA | 0.464 |
| CUGUGGUUGCGCUCCUUUCCCCAGGAAAAAGAAAAGAAAAAGAAAUUCGCAUGUUUAAUGUGACUUCCCCUCCCCGUCUGUGUUCUAACUUAUUUAUAAAAGGAUGAUGG | 0.753 |
| CAAUAAAGCCUGGUCUUUCUGUCUUUUCACAGAAAAUAAUAGUUCCUUUUAGGAUCUAGACAUACGGGUAAGACAUGACUCUCCCUGGAGCAGCUCUCUGCAGAACAAAA | 0.288 |
| UUGAUGGAUAAGUUACAGAGUUCUGGAGGAGAACAAGGUGAAAGCCUGGGUGCUGGAGAGGAAGGAAACAGUUAAAGGGUAGUUACUUGGUAUCCACCUUCAUGAUUUUA | 0.77 |
| CCUCCUGUUACAGUGUCUCUUGUCCCACCCUUACUGGAGGAAAAAAAAAAAAAAAACUCUAUCUCUUGGAAGUAGCUGAGGUAACCUUCCAGCUCCCUGCACCCAGAGGG | 0.869 |
| CACAACAACGGAAGGAACAGAAGAAAAAACACAAGCGCAAGUGAGCAGAAUUGUCUGGAAAGACUGAAGGACAGAGAGGGAGGUGUACAGUUCUCUCUGGAGGCUUUGUG | 1.12 |

Series 3
Target: Sal-like protein 4, full length isoform B (SALL4, Homo sapiens, UniProt Q9UJQ4-2, residues 1-616)
Method: universal PBM
Form: double-stranded DNA, one strand shown
Matrix: in vitro
Tested at: not given
Notes: 8-mer, flanks averaged, mean of replicates
Reading: higher = stronger binding
Target sequence (chain): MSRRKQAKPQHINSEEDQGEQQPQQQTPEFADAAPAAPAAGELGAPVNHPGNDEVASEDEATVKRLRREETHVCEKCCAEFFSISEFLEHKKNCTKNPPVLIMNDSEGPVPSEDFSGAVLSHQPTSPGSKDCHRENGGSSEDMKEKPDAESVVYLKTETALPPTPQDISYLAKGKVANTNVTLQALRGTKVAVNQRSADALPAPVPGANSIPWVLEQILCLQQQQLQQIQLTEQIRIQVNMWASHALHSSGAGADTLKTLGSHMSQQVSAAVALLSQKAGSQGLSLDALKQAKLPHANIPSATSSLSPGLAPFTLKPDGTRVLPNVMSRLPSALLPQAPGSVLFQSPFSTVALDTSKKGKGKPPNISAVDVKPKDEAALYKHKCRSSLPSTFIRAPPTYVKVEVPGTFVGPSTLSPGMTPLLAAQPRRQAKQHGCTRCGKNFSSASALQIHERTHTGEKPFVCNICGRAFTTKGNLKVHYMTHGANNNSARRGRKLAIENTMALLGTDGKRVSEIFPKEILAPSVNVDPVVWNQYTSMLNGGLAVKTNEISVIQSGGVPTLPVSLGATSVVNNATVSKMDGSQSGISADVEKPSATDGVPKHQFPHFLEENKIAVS
| Oligonucleotide | E-score |
| --- | --- |
| ATTACAGG | 0.299 |
| CGATTTTC | 0.0893 |
| TACTTAAA | 0.17 |
| CATTCCTA | 0.063 |
| GCGTTCTA | -0.125 |
| ATTAAGGG | 0.0735 |
| GTATGAGA | 0.24 |
| ACTAAAAA | 0.27 |
| AATTACCT | 0.266 |
| GCGGCTAA | -0.048 |
| CCGGCCCA | -0.279 |
| CATGAACA | 0.15 |
| GGTTCGAA | -0.0442 |
| CCTTAATA | 0.239 |
| CTCCACAA | -0.0858 |
| ACTGTAGA | 0.105 |
| AGCGTCCT | -0.087 |
| ACGGCTTC | -0.137 |
| GACTTTAC | -0.039 |
| TGGGAACA | -0.18 |
| CGGCCAGA | -0.297 |
| CAAAGGCA | -0.0625 |
| CACCCTCG | -0.286 |
| AGACAATG | 0.0761 |
| CTCATTGA | -0.0409 |

Series 4
Target: FOSL1, bZIP domain (human)
Method: DHFR protein complementation
Matrix: yeast
Notes: single substitutions, most at no-binding floor
Baseline: wild-type JUN-FOS pair
Reading: higher = stronger binding
Starting sequence: JUN, bZIP domain (human); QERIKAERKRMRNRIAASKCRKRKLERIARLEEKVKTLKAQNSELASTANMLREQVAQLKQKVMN; partner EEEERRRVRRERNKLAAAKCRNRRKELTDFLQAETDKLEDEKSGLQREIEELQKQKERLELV
| Variant | binding fitness |
| --- | --- |
| I28E | -0.641 natural log |
| Q55E | -0.379 natural log |
| E44I | -0.543 natural log |
| K36R | -0.286 natural log |
| Q55G | -1.28 natural log |
| A49E | -1.37 natural log |
| E54F | -0.737 natural log |
| E54D | -0.672 natural log |
| L31I | -0.961 natural log |
| K39S | -0.807 natural log |
| K34R | -0.189 natural log |
| L38F | -1.5 natural log |
| E32D | -0.575 natural log |
| A46E | -0.321 natural log |
| N42V | -0.126 natural log |
| A29P | -1.13 natural log |
| E33A | -0.494 natural log |
| E44R | -0.537 natural log |
| T48F | -0.437 natural log |
| L45H | -1.47 natural log |
| K36A | -0.278 natural log |
| N42K | -0.702 natural log |
| I28S | -0.976 natural log |
| K39V | -0.602 natural log |

Series 5
Target: PABPC1L2, full length, GST fusion (mouse, UniProt A0ABA7IW68)
Method: RNAcompete
Form: RNA
Matrix: in vitro
Tested at: 20 nM
Notes: 7-mer, probes averaged, single round
Baseline: mean of 7-mers
Reading: higher = stronger binding
Residues (chain): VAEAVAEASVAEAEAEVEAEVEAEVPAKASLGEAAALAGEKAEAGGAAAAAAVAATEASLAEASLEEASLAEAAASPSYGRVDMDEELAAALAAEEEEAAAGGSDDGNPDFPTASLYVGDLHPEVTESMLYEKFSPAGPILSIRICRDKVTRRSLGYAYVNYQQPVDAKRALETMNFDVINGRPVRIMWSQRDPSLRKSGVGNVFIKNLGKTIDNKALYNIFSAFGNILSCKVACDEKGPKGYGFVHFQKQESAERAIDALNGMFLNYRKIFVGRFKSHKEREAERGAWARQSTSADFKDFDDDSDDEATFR
| Oligonucleotide | 7-mer Z-score |
| --- | --- |
| GUAGUCC | -0.262 |
| GGCCCUG | -0.264 |
| AUUAAUC | -0.17 |
| UGGAACC | 0.075 |
| UGCGUAG | -0.00108 |
| UUUCUGG | -0.378 |
| AAGGAUU | -0.021 |
| AUACGGG | 0.32 |
| CACCCCC | -0.47 |
| ACACUGC | -0.148 |
| CGGAAGC | -0.209 |
| UGGCCUC | -0.277 |
| CGACACA | -0.0337 |
| UUUUGAC | -0.103 |
| CUACCCC | -0.371 |
| AUAUAUU | -0.162 |
| AUACCAA | 0.135 |
| AUCUUUU | -0.0228 |
| AGCAUAA | 0.648 |

Repeated from above (series 4):
| Variant | binding fitness |
| --- | --- |
| L31I | -0.961 natural log |
| K39S | -0.807 natural log |
| K34R | -0.189 natural log |
| L38F | -1.5 natural log |
| E32D | -0.575 natural log |
| A46E | -0.321 natural log |
| N42V | -0.126 natural log |
| A29P | -1.13 natural log |
| E33A | -0.494 natural log |
| E44R | -0.537 natural log |
| T48F | -0.437 natural log |
| L45H | -1.47 natural log |
| K36A | -0.278 natural log |
| N42K | -0.702 natural log |
| I28S | -0.976 natural log |
| K39V | -0.602 natural log |
